Published values from different studies.
Compare with care: the assays were run in different laboratories. “And” joins repeats or separate records; there may be more than shown. ± gives the spread as reported.

SMILES	tested on	test	system	conditions	how to read	endpoint	value
CC(C)CC(C(=O)N1CC2(CC1C#N)C(=O)Nc1ccccc12)N(C)C(=O)c1cc2c(F)cc(F)c(F)c2[nH]1 (stereo not drawn)	Human coronavirus 229E	cytopathic effect	MRC5	16.91 nM		inhibition	97.9%
O=S(=O)(c1ccc(-c2ccc3ncnc(Nc4ccccc4)c3c2)cc1)N1CCOCC1	Trypanosoma cruzi	intracellular amastigote growth, β-galactosidase CPRG	3T3, Tulahuen, β-galactosidase-expressing	10 µM, 96 h		inhibition	13%
CC[C@H](C)[C@H](NC(=O)[C@H](CCCCN)NC(=O)[C@H](CC(=O)O)NC(=O)[C@H](CC(C)C)NC(=O)[C@@H](NC(=O)[C@H](CC(N)=O)NC(=O)[C@H](CC(C)C)NC(=O)[C@@H](NC(=O)[C@H](Cc1ccccc1)NC(=O)[C@H](CCCCN)NC(=O)[C@H](CCCCN)NC(=O)CNC(=O)[C@H](C)NC(=O)[C@H](CC(N)=O)NC(=O)[C@H](CCCCN)NC(=O)[C@H](Cc1ccccc1)NC(=O)[C@H](CC(N)=O)NC(=O)[C@H](CCC(=O)O)NC(=O)[C@H](Cc1c[nH]c2ccccc12)NC(=O)[C@H](CC(C)C)NC(=O)[C@@H](N)CO)[C@@H](C)CC)[C@@H](C)CC)C(=O)N[C@@H](CCCNC(=N)N)C(=O)N[C@H]1CSSC[C@@H](C(=O)N[C@@H](CCCNC(=N)N)C(=O)N[C@H](C(=O)O)[C@@H](C)O)NC(=O)CNC(=O)CNC(=O)[C@H](C)NC(=O)[C@H](C(C)C)NC(=O)[C@H](CCCNC(=N)N)NC1=O	Gram-positive bacteria					geometric mean MIC	25.4 µM
CC(C)C[C@H](NC(=O)[C@H](CCN)NC(=O)[C@H](CCN)NC(=O)[C@@H](Cc1ccccc1)NC(=O)[C@H](CC(C)C)NC(=O)[C@H](CCN)NC(=O)[C@H](CCN)NC(=O)[C@@H](CCN)NC(=O)CCS)C(N)=O	Acinetobacter calcoaceticus	BHI agar spot plating		24 h, 37 °C		MBC	64 µM
COc1ccccc1CCNC1CCCc2c1[nH]c1ccc(C)cc21 (stereo not drawn)	Streptococcus pneumoniae			concentration not given, 10% fetal bovine serum	reference: without serum	MIC fold change	4
C[N+]1=C2C(c3ccc(Cl)cc3)=[N+]([O-])c3ccccc3N2CCC1	Clostridioides difficile	microbial growth				MIC50	32 µg/mL
CC(C)(C)C(=O)OCOP(=O)(OCOC(=O)C(C)(C)C)C1CCCN(O)C1=O (stereo not drawn)	786-0					GI50	350 nM
CC(C)[C@H]1NC(=O)[C@H](Cc2ccccc2)NC(=O)[C@@H](C(C)C)NC(=O)[C@@H](C)NC(=O)[C@H](C)NC(=O)[C@@H](Cc2c(-c3ccc(-c4ccc(-c5ccccc5)cc4)cc3)[nH]c3ccccc23)NC(=O)[C@@H](C)NC1=O	Mycobacterium marinum					MIC90	> 100 µM
CN(C)[C@H]1C[C@@]23CC[C@@]4(O2)C(=CC[C@]2(C)[C@@H](c5ccc6ccncc6c5)CC[C@H]24)C=C3[C@@H](O)[C@@H]1O	CLK3 (Homo sapiens, UniProt P49761)	ATP probe labelling, inhibitor, KiNativ profiling		1 µM		inhibition	13.1%
N=C(N)NCCC[C@H](NC(=O)[C@H](CCCNC(=N)N)NC(=O)[C@H](CCCNC(=N)N)NC(=O)[C@H](CCC(N)=O)NC(=O)[C@H](CCCNC(=N)N)NC(=O)[C@H](CCCNC(=N)N)NC(=O)[C@H](CCCCN)NC(=O)[C@H](CCCCN)NC(=O)[C@H](CCCNC(=N)N)NC(=O)CNC(=O)[C@H](Cc1ccc(O)cc1)NC(=O)[C@H](Cc1ccccc1)NC(=O)[C@H](Cc1ccccc1)NC(=O)[C@H](Cc1ccccc1)NC(=O)OCC1c2ccccc2-c2ccccc21)C(=O)O	Gram-positive bacteria			seven strains		geometric mean MIC	3.62 µM
O=S(=O)(c1ccc(-c2ccc3ncnc(Nc4ccc(OCc5cccc(Br)c5)c(Cl)c4)c3c2)cc1)N1CCOCC1	Trypanosoma cruzi	intracellular amastigote growth, β-galactosidase CPRG	3T3, Tulahuen, β-galactosidase-expressing	10 µM, 96 h		inhibition	7%
CS(C)(=O)=Nc1ccc(-c2ccc(-c3nc4cc(O[C@@H]5CO[C@H]6[C@@H]5OC[C@H]6O)[nH]c4cc3F)cc2)cc1	NOS3 (Homo sapiens, UniProt P29474)	enzyme activity		10 µM	reference: control	inhibition	-14%
Cc1cc(C(=O)Nc2nc3cccc(C)c3n2[C@H]2CCCCN(C(=O)/C=C/CN(C)C)C2)ccn1	Trypanosoma brucei		STIB795, mouse acute HAT model	oral, 7.5 mg/kg once daily for 4 days, day 5	reference: mice	survival	83.3%
CCOC(=O)C1(CC=C(C)C)Oc2cc(F)ccc2N(CC=C(C)C)C1=O (stereo not drawn)	Setaria viridis	fresh weight, greenhouse postemergence		postemergence, 150 g ai/ha, 21 days		inhibition	34 ± 0.68%
CC(C)[C@H]1NC(=O)[C@H](Cc2ccc(O)cc2)NC(=O)[C@@H](C(C)C)NC(=O)[C@@H](C)NC(=O)[C@H](CO)NC(=O)[C@H](Cc2c(-c3ccc(-c4ccc5ccccc5c4)cc3)[nH]c3ccccc23)NC(=O)[C@@H](CO)NC1=O	Mycobacterium marinum					MIC90	100 µM
O=C1NC2(CC2)COc2ncc(F)cc2[C@H]2COCCN2c2ccn3ncc1c3n2			Sprague-Dawley rat, female, serum	oral, 2.5 mg/kg/day, 4 weeks daily, end of recovery period		pancreatic amylase activity	1550 ± 398 U/L
O=[N+]([O-])c1ccc(C2=[N+]([O-])c3ccccc3N3CCCN=C23)cc1	Clostridioides difficile	microbial growth				MIC90	0.5 µg/mL
CN(C)c1nc(NCc2ccc3ccccc3c2)c(/N=N/c2ccc(Cl)cc2)c(N(C)C)n1	Ostrinia furnacalis	leaf dipping		200 mg/L, 96 h		mortality	33.3 ± 5.8%
CC[C@H](C)[C@@H]1NC(=O)[C@H](CO)NC(=O)[C@H](CCCCN)NC(=O)[C@@H]2CSSC[C@@H](C(=O)N[C@@H](Cc3ccc(O)cc3)C(N)=O)NC(=O)[C@H](CCCCN)NC(=O)[C@@H]3CSSC[C@H](NC(=O)[C@H](CCCNC(=N)N)NC(=O)[C@H](CC(C)C)NC(=O)[C@H](CC(=O)O)NC(=O)[C@H](CC(=O)O)NC(=O)[C@H](CCC(=O)O)NC(=O)[C@H](CC(N)=O)NC(=O)[C@H](Cc4c[nH]c5ccccc45)NC(=O)[C@@H]4CCCN4C(=O)CNC(=O)[C@H](CC(N)=O)NC(=O)[C@@H](NC(=O)CNC(=O)[C@H](Cc4ccccc4)NC(=O)CN)CSSC[C@H](NC(=O)[C@H](Cc4ccc(O)cc4)NC(=O)CNC(=O)CNC(=O)[C@H](CCCCN)NC(=O)[C@H](Cc4ccc(O)cc4)NC(=O)CNC(=O)[C@H](CCCCN)NC1=O)C(=O)N[C@@H](C)C(=O)N[C@@H](CCCCN)C(=O)NCC(=O)NCC(=O)N[C@@H](Cc1ccccc1)C(=O)N[C@@H](C(C)C)C(=O)N3)C(=O)N[C@@H](Cc1c[nH]cn1)C(=O)N[C@@H](CC(N)=O)C(=O)N[C@@H](Cc1c[nH]cn1)C(=O)N2	Streptococcus pneumoniae		D39	24 h, 37 °C, 99.9% killing		MBC	0.13 µM
CC[C@H](C)[C@H](NC(=O)[C@H](CCCCN)NC(=O)[C@H](CCCCN)NC(=O)[C@H](Cc1ccccc1)NC(=O)[C@H](Cc1ccccc1)NC(=O)[C@H](CCCCN)NC(=O)[C@H](CCCCN)NC(=O)[C@H](Cc1ccccc1)NC(=O)[C@H](CCCNC(=N)N)NC(=O)[C@@H](N)CCCCN)C(=O)N[C@@H](CCCCN)C(=O)N[C@@H](CCCCN)C(=O)N[C@@H](CO)C(=O)N[C@H](C(=O)N[C@@H](CCCCN)C(=O)N[C@@H](CCCCN)C(=O)N[C@@H](CCCNC(=N)N)C(=O)N[C@H](C(=O)N[C@@H](CCCCN)C(=O)N[C@@H](CCCCN)C(=O)N[C@@H](CC(C)C)C(=O)N[C@@H](Cc1ccccc1)C(=O)N[C@@H](CCCCN)C(=O)N[C@@H](CCCCN)C(=O)N1CCC[C@H]1C(=O)N[C@@H](CCCNC(=N)N)C(=O)N[C@H](C(=O)N[C@H](C(=O)N1CCC[C@H]1C(=O)N[C@H](C(=O)N[C@@H](CO)C(=O)N[C@H](C(=O)N1CCC[C@H]1C(=O)N[C@@H](Cc1ccccc1)C(=O)O)[C@@H](C)CC)[C@@H](C)CC)[C@@H](C)CC)C(C)C)C(C)C)C(C)C	Escherichia coli		E25 clinical isolate	20 h		MBC	8 µg/mL
CCc1nn(C)c2nc(-c3ccc(C(=O)O)cc3)nc(NCc3ccccc3)c12	Cryptosporidium parvum		HCT-8	6 x EC90, 24 h	reference: DMSO control	parasite number	45% and 44% and 37.8% and 30.6%
CNCCO.O=C(O)C(Cl)Cl	Chenopodium album	herbicidal activity		15 mg/mL, 21 days, post-emergence greenhouse		inhibition	0%
CCCCCCCC(=O)NCCCC[C@H](NC(=O)CCCCCCC)C(=O)N[C@@H](CCCCNC(=O)CCCCCCC)C(=O)NCC(=O)NCC(=O)NCC(=O)N[C@@H](CS)C(=O)N[C@@H](CCCNC(=N)N)C(=O)N[C@@H](CCCCN)C(=O)N1CCC[C@H]1C(=O)N[C@@H](CS)C(=O)N[C@@H](CCCNC(=N)N)C(=O)N[C@@H](CCCCN)C(=O)N1CCC[C@H]1C(=O)N[C@@H](CS)C(=O)N[C@@H](CCCNC(=N)N)C(=O)N[C@@H](CCCCN)C(=O)N1CCC[C@H]1C(=O)N[C@@H](CS)C(=O)N[C@@H](CCCNC(=N)N)C(=O)N[C@@H](CCCCN)C(=O)N1CCC[C@H]1C(N)=O	Candida			twelve fungal strains		geometric mean MIC	19 µM
COc1ccccc1-c1n[nH]c2nc(NC3CCN(C(=O)Cc4ccc(F)cc4F)CC3)ncc12		bead binding, competition bead pull-down, item: LINJ.29.0860	Leishmania donovani axenic amastigote extract	10 µM	reference: vehicle	relative abundance	0.97
Cc1cc(Oc2nc(N3CC[C@@H](c4ccncc4)C3)ncc2F)[nH]n1	SF-268	cell proliferation	brain cancer			IC50	> 100000 nM
O=C1NC(=O)c2c1c1cc(F)c[n+]3c1c1c2c2cc(O)ccc2[n]1[Ru-4]312([N]=C=S)[S+]3CC[S+]1CC[S+]2CC3 (stereo not drawn)	EGFR (Homo sapiens, UniProt P00533, L858R/T790M)	enzyme activity		100 nM, human enzyme, with: 10 µM ATP	reference: untreated	remaining activity	31%
CC(C)[C@H]1NC(=O)C[C@H]2/C=C/CCSSC[C@@H](NC1=O)C(=O)N[C@H](Cc1cccc3ccccc13)C(=O)NCC(=O)O2	HCK (Homo sapiens, UniProt P08631)	enzyme activity, inhibitor		10 µM		inhibition	-3.6%
CC[C@H](C)CCCCC(=O)N[C@@H](CCN)C(=O)N[C@H](C(=O)N[C@@H](CCN)C(=O)N[C@H]1CCNC(=O)[C@H]([C@@H](C)O)NC(=O)[C@H](CCN)NC(=O)[C@H](CCN)NC(=O)[C@H](CC(C)C)NC(=O)[C@@H](CC(C)C)NC(=O)[C@H](CCN)NC1=O)[C@@H](C)O	Escherichia coli	daily serial passaging	ATCC 8739	highest sub-MIC, 50 days	reference: initial MIC	MIC fold change	2.42
CCOC(=O)C1(Cc2ccc(C#N)cc2F)Oc2cc(F)ccc2N(Cc2ccc(C#N)cc2F)C1=O (stereo not drawn)	Setaria viridis	fresh weight, greenhouse postemergence		postemergence, 150 g ai/ha, 21 days		inhibition	43.4 ± 0.62%
COc1ccccc1-c1n[nH]c2nc(N[C@H]3CC[C@H](NS(=O)(=O)CC(C)C)CC3)ncc12		bead binding, competition bead pull-down, item: LINJ.27.2570	Leishmania donovani extract	10 µM	reference: vehicle	relative abundance	0.0332

For quick reference, copied from above:
SMILES	tested on	test	system	conditions	how to read	endpoint	value
CC(C)[C@H]1NC(=O)[C@H](Cc2ccc(O)cc2)NC(=O)[C@@H](C(C)C)NC(=O)[C@@H](C)NC(=O)[C@H](CO)NC(=O)[C@H](Cc2c(-c3ccc(-c4ccc5ccccc5c4)cc3)[nH]c3ccccc23)NC(=O)[C@@H](CO)NC1=O	Mycobacterium marinum					MIC90	100 µM
O=C1NC2(CC2)COc2ncc(F)cc2[C@H]2COCCN2c2ccn3ncc1c3n2			Sprague-Dawley rat, female, serum	oral, 2.5 mg/kg/day, 4 weeks daily, end of recovery period		pancreatic amylase activity	1550 ± 398 U/L
O=[N+]([O-])c1ccc(C2=[N+]([O-])c3ccccc3N3CCCN=C23)cc1	Clostridioides difficile	microbial growth				MIC90	0.5 µg/mL
CN(C)c1nc(NCc2ccc3ccccc3c2)c(/N=N/c2ccc(Cl)cc2)c(N(C)C)n1	Ostrinia furnacalis	leaf dipping		200 mg/L, 96 h		mortality	33.3 ± 5.8%
